# Experimental data gathered from unrelated publications.
# Lines come from different studies, so protocols differ. Several values in a cell are separate wells, animals, samples, runs or records. ± marks the error that the study gave.
SMILES,assay,system,conditions,scale,measurement,result
CC[C@H](C)[C@H](NC(=O)[C@H](Cc1ccccc1)NC(=O)[C@H](CCC(=O)O)NC(=O)[C@H](CCCCNC(=O)COCCOCCNC(=O)COCCOCCNC(=O)CC[C@H](NC(=O)CCCCCCCCCCCCCCCCC(=O)O)C(=O)O)NC(=O)[C@H](C)NC(=O)[C@H](C)NC(=O)[C@H](CCC(N)=O)NC(=O)CNC(=O)[C@H](CCC(=O)O)NC(=O)[C@H](CC(C)C)NC(=O)[C@H](Cc1ccc(O)cc1)NC(=O)[C@H](CO)NC(=O)[C@H](CO)NC(=O)[C@@H](NC(=O)[C@H](CC(=O)O)NC(=O)[C@H](CO)NC(=O)[C@@H](NC(=O)[C@H](Cc1ccccc1)NC(=O)[C@@H](NC(=O)CNC(=O)[C@H](CCC(=O)O)NC(=O)C(C)(C)NC(=O)[C@@H](N)Cc1cnc[nH]1)[C@@H](C)O)[C@@H](C)O)C(C)C)C(=O)N[C@@H](C)C(=O)N[C@@H](Cc1c[nH]c2ccccc12)C(=O)N[C@@H](CC(C)C)C(=O)N[C@H](C(=O)N[C@@H](CCCNC(=N)N)C(=O)NCC(=O)N[C@@H](CCCNC(=N)N)C(=O)NCC(=O)O)C(C)C,12-lead Holter ECG,healthy humans,"subcutaneous, 1.5 mg once weekly, 30 h, steady state",baseline: placebo,QTcF change from baseline,-1.3 ms
c1cc(-c2ccc3ncnc(Nc4ncco4)c3c2)cc(N2CC3CCC(C2)O3)c1,,human liver microsomes,,,CLint,72 µL/min/mg
C=CC(=O)Nc1cc(Nc2nccc(-c3cn(C)c4ccccc34)n2)c(OC)cc1N(C)CCN(C)C,UHPLC-MS/MS,"human, dried blood spot finger-prick","oral, 80 mg once daily",,trough concentration,257 ng/mL and 211 ng/mL and 198 ng/mL and 185 ng/mL and 183 ng/mL and 201 ng/mL
O=C(N[C@H](Cc1c[nH]c2ccccc12)C(=O)Nc1ccncc1)c1ccc(-c2cc(C(F)(F)F)ccc2F)cc1F,,"Swiss Webster mouse, female, brain","oral, 50 mg/kg, 8 h, 20% HPβCD vehicle",,concentration,160 nM
CCOC(=O)N1C[C@@H](C2CCCC2)N[C@@H](c2ccc(C(F)(F)F)cc2)C1,"shake-flask, 1-octanol/buffer",,pH 7.4,,logD,> 4.7
CC(C)c1nc(CN(C)C(=O)N[C@@H](CCN2CCOCC2)C(=O)N[C@H](CC[C@H](Cc2ccccc2)NC(=O)OCc2cncs2)Cc2ccccc2)cs1,,human,"oral, 150 mg, drug interaction trial",,grade 2 TEAE,7.7%
Cc1cc(C)c(CNC(=O)c2cc(Cl)c3c(c2C)O[C@@](C)([C@H]2CC[C@H](N(C)C)CC2)O3)c(=O)[nH]1,CTCAE v4.0,"human, relapsed/refractory NHL","oral, 200 mg once daily, onset after cycle 1 day 1",,grade ≥3 TEAE patients,66.7%
COc1ccc2c(=O)n(C)c(-c3ccccc3)nc2c1,,"male Sprague-Dawley rat, testis","oral, 30 mg/kg, 4 h",baseline: testis over plasma,tissue/plasma ratio,11
CNC(=O)c1ccc(-c2cnc3ncc(Cc4ccc5ncccc5c4)n3n2)cc1F,measured: Asthenia,hepatocellular carcinoma patients,"oral, 600 mg twice daily, expansion cohort, grade 3-4",,patients with adverse event,0%
COc1cc2nccc(Oc3ccc(NC(=O)NC4CC4)c(Cl)c3)c2cc1C(N)=O,,rat liver microsomes,"30 min, pH 7.4",,Km,20.7 µM
O=C(COc1ccc(Cl)cc1)NC12CC(c3nnc([C@H]4C[C@@H](OC(F)(F)F)C4)o3)(C1)C2,measured: Fatigue,human,"oral, dose not given, 14 days",,adverse event incidence,26.5%
Cc1cc(NC2CCN(C(=O)OC3CCN(C(=O)/C=C/CN(C)C)C3)CC2)n2ncc(C(C)C)c2n1 (stereo not shown),,patients with advanced solid tumours,"dose not given, QD arm, any grade",,patients with adverse events,98%
Cc1ccc([C@@H]2O[C@H](CO)[C@@H](O)[C@H](O)[C@H]2O)cc1Cc1ccc(-c2ccc(F)cc2)s1,,Japanese type 2 diabetes patients,"200 mg, day 17, 24 h urine collection",baseline: baseline,urinary potassium excretion change,-0.424 mEq
CNC(=O)c1cc(Oc2ccc(NC(=O)Nc3cc(C(C)(C)C)nn3-c3ccc4ncccc4c3)c(F)c2)ccn1,,patients,"oral, dose not given, cycles 1 and 2, Medium Cmax subgroup",,patients with grade 3 musculoskeletal disorders,27%
CSc1cc(C)nc(SC)c1NC(=O)CN1CCN(CCSc2nc3ccccc3[nH]2)CC1.Cl,,"mouse, olfactory bulb","intranasal, 7 days daily, 120 min, HA 10 µL, LLOQ 1 ng/g",,tissue concentration,not detected
NC1(C(=O)N[C@@H](CCO)c2ccc(Cl)cc2)CCN(c2nc[nH]c3nccc2-3)CC1,,metastatic CRPC patients,"dose not given, grade 3 to 4, treatment-related, all doses, together with: enzalutamide 160 mg daily",,incidence of Pyrexia,0%
CNC(=O)c1ccc(-c2cnc3ncc(Cc4ccc5ncccc5c4)n3n2)cc1F,,human plasma,stored at -70 °C,,freeze-thaw stability,5 cycles
CCOc1c([C@H](C)n2nc(C)c3c(N)ncnc32)cc(Cl)c(F)c1[C@@H]1CNC(=O)C1,,"patients with indolent lymphoma, plasma","oral, 20 mg, day 15, monotherapy",,half-life,8.8 ± 2 h
CCN1/C(=C/C(C)=O)Sc2ccc(F)cc21,,cynomolgus monkey,"oral, 100 mg/kg, 2 h post-dose",,QTc interval (Bazett),328 ± 14 ms
Cc1ccc(Sc2ccccc2N2CCNCC2)c(C)c1,measured: Nausea,healthy adult men,"oral, 10 mg daily, 12 days",,participants with TEAE,0%
CN1CCCC1CCNS(=O)(=O)c1ccc2c(c1)CN(CC1CCCCC1)CC2 (stereo not shown),,"wild-type mouse, plasma","oral in diet, 0.002% in diet, 6 months",,Cmin,1.77 ng/mL
O=C(OC(C(F)(F)F)C(F)(F)F)N1CCN(Cc2cccc(Oc3ccccc3)c2)CC1,PET blocking study,"rhesus monkey, brain THA","0.1 mg/kg, compound pretreatment, together with: [18F]T-401 tracer",,Ktrans,0.0008 min⁻¹
CC(C)C[C@H](NC(=O)[C@@H](Cc1c[nH]c2ccccc12)NC(=O)[C@H](Cc1ccc(O)cc1)NC(=O)[C@H](CO)NC(=O)[C@H](Cc1c[nH]c2ccccc12)NC(=O)[C@H](Cc1c[nH]cn1)NC(=O)[C@@H]1CCC(=O)N1)C(=O)N[C@@H](CCCNC(=N)N)C(=O)N1CCC[C@H]1C(=O)NCC(N)=O,,Chinese CPP girls,"intramuscular, 22.5 mg, 12 months, day 1, month 6",,"patients, drug-related Overweight TEAEs",0%
O=C(O)CN1CCCN2CCN(CC(=O)O)CCCN(CC1)Cc1cccc(n1)C2,,64Cu complex,"24 h, pH 7.4, 37 °C, together with: DOTA excess",,intact complex,95%
CNC(=O)c1ccc(-c2cnc3ncc(Cc4ccc5ncccc5c4)n3n2)cc1F,,Japanese patients,"oral, 400 mg twice daily, grade 3/4",,Dysphonia patients,0%
CC[C@H](C)CCCCC(=O)N[C@@H](CCN)C(=O)N[C@H](C(=O)N[C@@H](CCN)C(=O)N[C@H]1CCNC(=O)[C@H]([C@@H](C)O)NC(=O)[C@H](CCN)NC(=O)[C@H](CCN)NC(=O)[C@H](CC(C)C)NC(=O)[C@@H](Cc2ccccc2)NC(=O)[C@H](CCN)NC1=O)[C@@H](C)O,,"normal renal function subjects, urine","IV, 0.75 mg/kg, 0-12 h, arithmetic mean",,cumulative urinary excretion,0.884 mg
CN1CCN(C(=O)c2ccc3cc(CCNc4ccnc5ccc(C#N)cc45)ccc3c2)CC1,,"human hepatocytes, female","2 µM, 37 °C",,CLint,6.39 µL/min/10⁶ cells
Cc1cc2sc(N)nc2c2cccnc12,,"female BALB/c mice, plasma","i.p., 30 mg/kg",,AUMC(0-t),219000 h²·ng/mL
C[C@@H](Oc1ccc(S(C)(=O)=O)cc1C(=O)N1C[C@@H]2C[C@]2(c2cc(C(F)(F)F)on2)C1)C(F)(F)F,,"healthy young humans, plasma","oral, 50 mg single dose",,%AUC extrapolated,30.6%
CC(C)[C@@H](CS(=O)(=O)C(C)C)N1C(=O)[C@@](C)(CC(=O)O)C[C@H](c2cccc(Cl)c2)[C@H]1c1ccc(Cl)cc1,,FVB Abcb1a/b-/- Abcg2-/- mice,"intravenous, 20 mg/kg",,brain to plasma ratio,0.319
C[C@H]1CN(C(=O)CC#N)[C@]12CCN(c1ncnc3[nH]ccc13)C2,,"healthy Japanese males, plasma","oral, 25 mg single dose",,Cmax,313 ng/mL
O=C(Nc1nc2cccc(-c3ccc(CN4CCS(=O)(=O)CC4)cc3)n2n1)C1CC1,,rheumatoid arthritis patients,"oral, 100 mg twice daily, 4 weeks, TEAE regardless of relatedness",,patients with Thrombocytopenia,0%
CN1CCN(c2cccc3c2CCN(C(=O)/C=C/c2c(-n4cnnn4)ccc(Cl)c2F)[C@@H]3C(=O)Nc2ccc(C(=O)O)cc2)C(=O)C1,,healthy human subjects,"intravenous infusion, 10 mg/h, 2 h",,subjects with headache,0%
[O]=[Co].[O]=[Co][O][Co]=[O],,"rat, male, faeces, 24-h collection","oral gavage, single, 300 mg/kg (220 mg Co/kg), day 1, vehicle 0.5% HPMC",baseline: vehicle control subtracted,cobalt concentration,5500 µg/g
CC(C)(C)c1ccc([C@H]2COC[C@H](c3ccc(F)c(C#N)c3)N2)cc1,"shake-flask, 1-octanol/buffer",,pH 7.4,,logD,> 4.7
CCO[C@H]1CCN(Cc2c(OC)cc(C)c3[nH]ccc23)[C@H](c2ccc(C(=O)O)cc2)C1,,"PNH patients, active haemolysis","oral, 25 mg, 4 weeks, treatment",,incidence of GGT increase,0%
CC(C)(C(=O)N1CCOc2c(C#N)cncc2C1)C(F)F,measured: blood and lymphatic disorders,"human, both sexes","oral, 10 mg once daily, 14 days, multiple ascending dose",,subjects with TEAE,0%
OCc1nc2ccc(NCc3ccc(C(F)(F)F)cc3)cc2[nH]1,,human liver S9,"1 µM, pH 7.4",,CLint,3.6 µL/min/mg
CCC[C@H](C)[C@H]1CN(C(=O)OCC)C[C@@H](c2cccc(Br)c2)N1,"shake-flask, 1-octanol/buffer",,pH 7.4,,logD,> 4.7
CCOc1c([C@H](C)n2nc(C)c3c(N)ncnc32)cc(Cl)c(F)c1[C@@H]1CNC(=O)C1,,rat plasma,"5 ng/mL, three freeze-thaw cycles",baseline: nominal concentration,stability relative error,7.3%
O=C1c2ccncc2C(=O)c2c1[nH]c1ccccc21,no effect,"rat, normal",dose not given,,systemic vascular hemodynamics,no effect
CCCn1cc(C)c2c(=O)[nH]c(-c3cc(S(=O)(=O)N4CCN(CC)CC4)ccc3OCC)nc21,,human,treatment-emergent adverse event,,flushing,38.9%
CCOC(=O)c1cnc(Nc2nc3ccccc3o2)nc1CN1CCN(c2ccccc2)CC1,,octanol/buffer,pH 7.4,,logD,4.07
CC(C)(C)c1ccc([C@H]2COC[C@@H](C3CCCC3)N2)cc1,"shake-flask, 1-octanol/buffer",,pH 7.4,,logD,> 4.7
NC/C(=C\F)COc1cccc(Cn2c(=S)[nH]c(=O)c3[nH]cnc32)c1,,"C57BL/6J mice, plasma","oral, 15 mg/kg single, 6 h",,tissue concentration,50 ng/mL
O=C(Nc1ccc(OC(F)(F)Cl)cc1)c1cnc(N2CC[C@@H](O)C2)c(-c2ccn[nH]2)c1,"per laboratory record, measured: AST increase",human patients,"oral, dose not given, dose-finding study",,grade ≥2 event rate,0.3%
C[Si](C)(C)O[Si](C)(C)C,,1-octanol/air,concentration not given,,enthalpy of phase change,-6.38 kcal/mol
C=CC[C@@H]1/C=C(\C)C[C@H](C)C[C@H](OC)[C@H]2O[C@@](O)(C(=O)C(=O)N3CCCC[C@H]3C(=O)O[C@H](/C(C)=C/[C@@H]3CC[C@@H](O)[C@H](OC)C3)[C@H](C)[C@@H](O)CC1=O)[C@H](C)C[C@@H]2OC,,"Wistar Kyoto rat, male, plasma","ip, 0.5 mg/kg/day, day 28, at sacrifice",,plasma Mg2+,0.73 ± 0.07 mmol/L
C[C@H]1OC[C@@H](C2CCCCC2)N[C@@H]1c1cccc(Cl)c1,"shake-flask, 1-octanol/buffer",,pH 7.4,,logD,> 4.7
COc1ccc2c(c1)CN(C(=O)CCN1CCC(Cc3ccccc3)CC1)CC[S@@+]2[O-],telemetry,conscious male beagle dogs,"intravenous, 2 mg/kg, 1 h",,QT interval,218 ± 13 ms
Cc1cc(-c2nccc3c2ccn3CC(=O)Nc2ccc(-c3cnccn3)cn2)ccn1,,human,"5 mg once daily, multiple ascending dose",,general or administration site disorders,37.5%
Cc1nc(C)c(-c2ccnc(N)n2)s1,,octanol/buffer,"67 µM, pH 7.4",,logD,1.67
CC#CC(=O)N1CCC[C@H]1c1nc(-c2ccc(C(=O)Nc3ccccn3)cc2)c2c(N)nccn12,,PBS,"100 µM, 23 h, pH 7.45, 37 °C, together with: cysteine 10 mM",,cysteine adduct formation,79%
CC1(CNC(=O)[C@H](CN)NC(=O)c2ccc(-c3ccccc3)cc2)NC(=O)NC1=O (stereo partly shown),,octanol/buffer,pH 7.4,,logD,1.01
CN(C(=O)n1cnc(-c2cccnc2)c1)[C@H]1CC[C@H](O)CC1,,"Wistar rat, pons","oral, 10 mg/kg/day of BIA 10-2474, 48 h, repeated 5 days",,concentration,14 ± 1 ng/g

# A few entries again:
SMILES,assay,system,conditions,scale,measurement,result
CN(C(=O)n1cnc(-c2cccnc2)c1)[C@H]1CC[C@H](O)CC1,,"Wistar rat, pons","oral, 10 mg/kg/day of BIA 10-2474, 48 h, repeated 5 days",,concentration,14 ± 1 ng/g
Cc1cc2sc(N)nc2c2cccnc12,,"female BALB/c mice, plasma","i.p., 30 mg/kg",,AUMC(0-t),219000 h²·ng/mL
COc1ccc2c(c1)CN(C(=O)CCN1CCC(Cc3ccccc3)CC1)CC[S@@+]2[O-],telemetry,conscious male beagle dogs,"intravenous, 2 mg/kg, 1 h",,QT interval,218 ± 13 ms
Cc1ccc(Sc2ccccc2N2CCNCC2)c(C)c1,measured: Nausea,healthy adult men,"oral, 10 mg daily, 12 days",,participants with TEAE,0%
CCOC(=O)N1C[C@@H](C2CCCC2)N[C@@H](c2ccc(C(F)(F)F)cc2)C1,"shake-flask, 1-octanol/buffer",,pH 7.4,,logD,> 4.7
NC1(C(=O)N[C@@H](CCO)c2ccc(Cl)cc2)CCN(c2nc[nH]c3nccc2-3)CC1,,metastatic CRPC patients,"dose not given, grade 3 to 4, treatment-related, all doses, together with: enzalutamide 160 mg daily",,incidence of Pyrexia,0%
